Published values from different studies.
Parts stem from different laboratories: compare values within a part only. Changes are numbered by the printed parent chain.

Series 1 — method: competition protein-binding microarray; molecule type: double-stranded DNA, one strand shown; medium: in vitro; tested at: 2 µM; added: Cbf1 competitor, 0.05 µM; reading: higher = stronger binding; all sequences stand within: … GTCTTGATTCGCTTGACGCTGCTG
Target: Phosphate system positive regulatory protein PHO4, full length, GST-tagged (PHO4, Saccharomyces cerevisiae, UniProt P07270, residues 1-312)
Notes: whole 60-bp probe, lowest competitor level
Residues (chain): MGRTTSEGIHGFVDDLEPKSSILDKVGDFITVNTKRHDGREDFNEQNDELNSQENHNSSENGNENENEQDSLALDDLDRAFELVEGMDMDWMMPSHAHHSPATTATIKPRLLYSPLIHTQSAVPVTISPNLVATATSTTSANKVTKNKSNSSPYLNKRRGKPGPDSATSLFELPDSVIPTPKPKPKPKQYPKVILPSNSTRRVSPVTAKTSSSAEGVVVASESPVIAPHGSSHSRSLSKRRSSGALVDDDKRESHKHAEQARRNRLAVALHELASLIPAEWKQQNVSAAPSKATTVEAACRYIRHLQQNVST
| Oligonucleotide | fluorescence intensity [a.u.] |
| --- | --- |
| CGGGGTTAAGTTTGGTTGGTGGGTGGCTTGCAGCAG | 4990 |
| TGAACCCTTGATATAAACGTGATGGTTATTATCGGT | 10800 |
| GCTTGTATGCTATACCATGTGATATGTAATAGTACA | 8860 |
| CTTTCCCGATCTTGTACTGTGGGTGTAGCACATTTG | 5040 |
| AAATTACTAAGTTGACTCGTGGGTGACGCCGTATGA | 10400 |
| CTTCTGTAAATTTGTACGGTGGGTGGACGCGCCCCG | 3960 |
| CAGAACAGGTTTGTATTCGTGATGGTGTCCCTGAAG | 4370 |
| AAATTACTAAGTTGTTAGGTGGGTGACGCCGTATGA | 3720 |
| TGCGCAACAACTTGGCACGTGTTTTTATGTCTAGAA | 18100 |
| CCAAAGGTAACTTAGCGTGTGATATCACCGGAAGAG | 4710 |
| TGGAAGTGTGTGAATTTCGTGATGGAATTATTGTCA | 5140 |
| CTTCTGTAAATTTGCAGAGTGGGTGGACGCGCCCCG | 3640 |
| AGTAAGAACAATACCCACGTGCTTTTCAATGTACAA | 18000 |
| TTTTATTCCTGGAAAAGCGTGCAAATATTTTTCGAG | 7980 |
| CAACAAGGAGGATGGCATGTGGATACTACTTTCTTG | 8980 |

Series 2 — method: protein-binding microarray; molecule type: double-stranded DNA, one strand shown; medium: in vitro; tested at: 940 nM top; notes: 60-bp whole probe; added: salmon DNA 0.4 mg/ml; relative to: random background probes; reading: higher = stronger binding; all sequences stand within: GCCTAGCAC … GTCTTGATTCGCTTGACGCTGCTG
Target: Interferon regulatory factor 5, full length, phosphomimetic (IRF5, Homo sapiens, UniProt Q13568-2, residues 1-514, S451D/S453D/S456D/S462D)
| Oligonucleotide | fitted relative affinity [z-score] |
| --- | --- |
| TTAGGTCTCGGTTTCGGTTGGTGCTAG | 9.38 |
| GACGATTACGGGACTGGAGACGTGCTA | -0.378 |
| GACGAACTGGGGTTACGAGACGTGCTA | -0.0111 |
| GGGTTTTTTAGGCAGACAGCGTGCTAG | 0.181 |
| TTGGGTCTCGGACTGGGTTAGTGCTAG | 0.989 |
| ACCCATTGAGATTTTCATTATGTGCTA | 0.528 |
| TCATTTCTAATGTTTTTTACTGTGCTA | 0.432 |
| GACGGTTTCGGTAACGGGACGTGCTAG | 12.7 |
| AACGGTATCGGGTTTCGGGACGTGCTA | 5.48 |
| TTAGGTTCCCTTTTCGTTTAGTGCTAG | 1.29 |
| GACGATTTCGGGACTGCAGACGTGCTA | 0.0434 |
| TCACCTCAGGGTTTCAGACTGTGCTAG | -0.00726 |
| CTAGGTATCGGACTGGGTTAGTGCTAG | 2.76 |
| TCATCATTCCTGATCTCACTGTGCTAG | 0.518 |
| GACGGACTGGATATCGGGACGTGCTAG | -0.539 |
| GACGGGCTGGGGACTGGGGACGTGCTA | -0.0463 |
| GACGGTTGCCTTATCCTGACGTGCTAG | -0.0422 |
| GACGGTATCGGTACCGGGACGTGCTAG | 9.05 |
| GACGGTTTCTTTCTCCTGACGTGCTAG | 3.21 |
| GCCGGTTTCGGTCTCGGGACGTGCTAG | 15.1 |
| CCCTCCCTAATTCTGATTGGGTGCTAG | 0.351 |
| TTAGGTATCCTTATCCCTTAGTGCTAG | 0.335 |
| CTCAGGTAATATTTCCTGCTGTGCTAG | -0.00401 |

Series 3 — target: CCND2, cyclin fold, Cln2 fusion (human); method: yeast growth competition, sequencing; medium: yeast; notes: weak parent motif; relative to: not given; reading: higher = stronger binding
Starting sequence: WEE1 docking peptide (human); HKTFRKLRLFDTP
| Substitution | normalised enrichment score |
| --- | --- |
| HETFRKLRLFDTP [K2E] | 0.307 |
| HKRFRKLRLFDTP [T3R] | -0.161 |
| HKTFRKLRLRDTP [F10R] | -0.27 |
| HRTFRKLRLFDTP [K2R] | 0.471 |
| HSTFRKLRLFDTP [K2S] | 0.0553 |
| HKTFRKLRLFGTP [D11G] | -0.81 |
| HKTDRKLRLFDTP [F4D] | -0.0694 |
| HKTFRKLRLFITP [D11I] | -0.198 |
| HKTFRTLRLFDTP [K6T] | 0.168 |
| HKTFRKLRLFHTP [D11H] | -0.777 |
| RKTFRKLRLFDTP [H1R] | 0.75 |
| HGTFRKLRLFDTP [K2G] | 0.0136 |
| HKTFRKLRRFDTP [L9R] | -0.211 |
| HKTERKLRLFDTP [F4E] | 0.329 |
| HKTFRWLRLFDTP [K6W] | 0.172 |
| HKTFRFLRLFDTP [K6F] | -1.07 |
| HKIFRKLRLFDTP [T3I] | -0.223 |

Series 4 — method: RNA Bind-n-Seq; molecule type: RNA; medium: in vitro; tested at: not given; relative to: input RNA pool; reading: higher = stronger binding
Target: RING finger protein unkempt homolog, zinc fingers 1-6, GST-SBP tag (UNK, Homo sapiens, UniProt Q9C0B0, residues 30-357)
Sequence of UniProt Q9C0B0 (30-357, looked up): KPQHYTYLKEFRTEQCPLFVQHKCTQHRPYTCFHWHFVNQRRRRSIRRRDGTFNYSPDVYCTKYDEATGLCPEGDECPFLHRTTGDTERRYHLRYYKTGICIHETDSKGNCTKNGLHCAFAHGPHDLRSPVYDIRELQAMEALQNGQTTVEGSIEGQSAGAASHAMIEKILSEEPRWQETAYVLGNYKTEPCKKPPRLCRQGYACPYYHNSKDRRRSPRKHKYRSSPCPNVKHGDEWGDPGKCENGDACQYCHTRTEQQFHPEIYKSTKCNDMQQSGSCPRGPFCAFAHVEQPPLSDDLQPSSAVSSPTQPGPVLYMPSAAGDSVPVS
Notes: RNA with constant flanks, human-mouse chimeric sites, ends assumed
All sequences stand within: GGGAGUUCUACAGUCCGACGAUC … CAACAGAGGAUUGAGCAUCA
| Oligonucleotide | bound/input enrichment |
| --- | --- |
| CAGCGCCGAGGCCGCGGGUGCCCGCCGGGCCUCCCCAGCAGCAGCCAUGGGCAUCAAAUUUUUAGAAGUUAUCAAACCAUUCUGUGCAGUUCUACCAGAAAUUCAGAAGCCUGAAAGGAA | 0.849 ratio |
| ACCUCCCCCUCCCGCCUCACCCCACCCCCGCUUUUUGGAAAGUUUUUGGCGUUUCUUUUUUUUAGAAAUACAAAGUGAUUACAGUUUCCCCCGCAAGGGUCUAUCGAAGGGCUUGACGGA | 2.04 ratio |
| AAAGAGUGGAUAGAGUGUGCACACGGGAUCGGUGGGACUCGGGCAGAAAAGGAGUGCAAGAUAGAGUUCGAUGACUUCGAAGAGUGCUUGCUUCGGCACAAAACGAUGAGGCGAAUGCAU | 0.313 ratio |
| AAAGAACCUCUCUCUGAAGAAGAGGAAGAAGACAAUGAUGAUGUUGAACCCAUUUCUGAAUUUCGAUUUGUGCCCAGUGAUAAGUCAGCAUUGGAGGCGAUGUUCACAGCAAUGUGUGAG | 0.315 ratio |
| UGUAGUUCUGAAUACACGGCUUUGUGUGUAGUUCACUUACGGUAUUAAAUUAUUAUUCUGCUUAGCUUAUAAUAAGGAUAAUUGCAUUUAAAGAGGUUACUGAAUGUUACUCUGAAACUU | 0.855 ratio |
| UAAGUCCUGUGCCAGCACUUCGCUCAUAAAGUUUUAAAUUCUGGACCAAUUGUGUUUAUCUUUAGAAUAUUGUAUCCAAUACUUUGCCUAGUAUGUAACUCACUCUUACUGAUAAUAAAA | 4.08 ratio |
| UCUUUAAAAAAAAAAUUACCUUUUCUGCAUAUUAUAGCCCUCCCAUAGAUCCACGUUCAAGCUCAAAGAGCAAAGGCUUUGCACGGAGCUCAAACAUCUGAUGAAGAAAGAUUUCUGAGA | 4.02 ratio |
| AAAGGCAAAAAGGGCAGCUGUGUCAUUUCAUAAGUAACUCUGGGGGAUAAGUGGAAGGUUCUUUUGUUUAAUUUUCCCCCAAAUGAAGCCAAAGUGUGUGUUGAAGAACUGAGAAAAAAU | 0.149 ratio |
| UUUGUAAUAUCUGUAAAAGGUUCCCCCCCCUACUGUCCAAAAAAUAUGCAUGUAUAGUAAUUAGGACUUCAUUCCUCCAUGUUUUCUUCCCUUAUCUUACUGUCAUUGUCCUUAAACCUU | 1.63 ratio |
| GAGCGUCUUGCCCGCACUGGGAUCAUCGUGACCACGAGUGAGGCUGUCCUCCUACAGCUGGUGGCUGAUAAGGACCACCCGAAGUUCAAGGAAAUUCAGAACCUAAUUAAGGCGAGUGCC | 0.113 ratio |
| ACCUCCCAGGCCUGGGAGCUUUUUGAACCGCUUUUUGGAAAGUUUUUGGCGUUUCUUUUCCUUCCCCAUACAAAGUGAUUACAGUUUCCCCCGCAAGGGUCUAUCGAAGGGCUUGACGGA | 0.5 ratio |

Repeated from above (series 3):
| Substitution | normalised enrichment score |
| --- | --- |
| HKTDRKLRLFDTP [F4D] | -0.0694 |
| HKTFRKLRLFITP [D11I] | -0.198 |
| HKTFRKLRLRDTP [F10R] | -0.27 |
| HRTFRKLRLFDTP [K2R] | 0.471 |
